Measured values collected from several papers.
Parts stem from different laboratories: compare values within a part only.
Sequence of UniProt P60842 (whole entry, looked up): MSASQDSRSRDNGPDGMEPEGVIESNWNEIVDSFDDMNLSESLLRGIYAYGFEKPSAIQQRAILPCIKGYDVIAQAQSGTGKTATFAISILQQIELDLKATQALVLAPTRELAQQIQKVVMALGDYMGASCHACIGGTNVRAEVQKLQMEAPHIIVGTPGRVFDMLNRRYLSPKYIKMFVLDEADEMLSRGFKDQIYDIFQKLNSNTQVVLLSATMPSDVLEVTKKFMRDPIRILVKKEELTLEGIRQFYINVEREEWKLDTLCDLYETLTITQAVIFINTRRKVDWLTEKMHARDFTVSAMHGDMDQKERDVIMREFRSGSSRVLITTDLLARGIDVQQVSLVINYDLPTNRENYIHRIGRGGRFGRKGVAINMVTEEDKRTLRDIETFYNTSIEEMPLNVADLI

Block 1 — technique: RNAcompete; form: RNA; matrix: in vitro; concentration: 20 nM; setting: 7-mer, probes averaged, single round; baseline: mean of 7-mers; direction: higher = stronger binding
Target: PABPC1L2, full length, GST fusion (mouse, UniProt A0ABA7IW68)
Construct (chain): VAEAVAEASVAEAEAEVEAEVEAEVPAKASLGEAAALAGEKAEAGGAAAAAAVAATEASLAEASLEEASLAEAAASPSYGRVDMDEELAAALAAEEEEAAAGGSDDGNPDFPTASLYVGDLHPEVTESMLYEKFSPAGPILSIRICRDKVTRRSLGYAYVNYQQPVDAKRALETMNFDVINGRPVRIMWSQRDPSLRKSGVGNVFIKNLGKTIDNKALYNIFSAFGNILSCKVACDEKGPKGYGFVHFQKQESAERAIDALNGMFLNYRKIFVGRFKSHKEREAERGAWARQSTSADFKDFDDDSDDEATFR
`UGUGUUU` gave a 7-mer Z-score of -0.454.
For `UUAACGG`, the 7-mer Z-score was -0.141.
The 7-mer Z-score of `GCUCGGC` is reported as -0.231.
With `AGUGAGU` the 7-mer Z-score was -0.204.
`AGUCACG` gave a 7-mer Z-score of -0.0428.
For `CUGCGUG`, the 7-mer Z-score was -0.22.
With `AAGUAAG` the 7-mer Z-score was 0.229.
The 7-mer Z-score of `CACGCGG` is reported as -0.0409.

Block 2 — read-out: enzyme activity; mode: inhibitor; setting: without DTT
Target: Replicase polyprotein 1ab, main protease (rep, Severe acute respiratory syndrome coronavirus 2, UniProt P0DTD1)
The IC50 of `Cc1ccc(S(=O)(=O)/C=C/C#N)cc1` is reported as 800 nM.
`COC(=O)C1=C(C)NC(C)=C(C(=O)OC)C1c1ccccc1[N+](=O)[O-]` gave an IC50 of > 20000 nM.
With `COCCCOc1ccnc(C[S+]([O-])c2nc3ccccc3[nH]2)c1C` (centres unmarked) the IC50 was 740 nM.

Block 3 — technique: RNA Bind-n-Seq; form: RNA; matrix: in vitro; concentration: not given; baseline: input RNA pool; direction: higher = stronger binding
Target: RING finger protein unkempt homolog, zinc fingers 1-6, GST-SBP tag (UNK, Homo sapiens, UniProt Q9C0B0, residues 30-357)
Sequence of UniProt Q9C0B0 (30-357, looked up): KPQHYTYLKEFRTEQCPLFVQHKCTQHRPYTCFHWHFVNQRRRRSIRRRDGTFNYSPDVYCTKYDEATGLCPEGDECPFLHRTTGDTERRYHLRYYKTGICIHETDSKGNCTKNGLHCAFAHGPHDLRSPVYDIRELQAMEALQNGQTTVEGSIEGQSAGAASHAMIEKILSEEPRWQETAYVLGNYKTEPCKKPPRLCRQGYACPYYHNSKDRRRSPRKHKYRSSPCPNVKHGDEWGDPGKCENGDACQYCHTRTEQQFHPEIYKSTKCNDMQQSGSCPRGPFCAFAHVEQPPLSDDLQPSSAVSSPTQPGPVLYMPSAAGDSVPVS
Setting: RNA with constant flanks, human and mouse sites, ends assumed
`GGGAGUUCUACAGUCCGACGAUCCGUCAAACUUUUGGUUGUGUGGGGUUUUUUGUUGUUUUUUGGGUUUUGUUUUUUAAUACUUUAGGGUCCUGAUUUGUGGGAACAGACCUUCUUGUAAAUAACCACUAUUUGAGUUGUGGCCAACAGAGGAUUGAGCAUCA` has a bound/input enrichment of 0.675 ratio.
`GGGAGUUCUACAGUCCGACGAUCUUCUUGAGACAGGGUCUGACUGUGAAACCCUGGCUAAUCUGGAACUCACUAUGUAGACCAGACUGGUCUUGAACUCACAGAGAUCCAACUGCCUUUGCCUCCCAAGUGUUGGGAUGAAAGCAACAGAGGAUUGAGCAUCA` gave a bound/input enrichment of 0.0563 ratio.
With `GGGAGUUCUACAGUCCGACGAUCAUCACCAUGUUGGAAGCAGCACUGGGACUUGAGCGAGCUCACAUGGGAAUGUUUACUGAAUUAGCUAUUCUAUACUCUAAAUUUAAGCCUCAGAAAAUGAGGGAGCACCUGGAGCUGUUCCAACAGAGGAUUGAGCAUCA` the bound/input enrichment was 0.885 ratio.
`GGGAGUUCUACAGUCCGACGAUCAUUGGCAACAAUAUCAAAAAAGAAACAGUGUUCUCUGAUGAUGAUUUCAAUAUUGAGCCGCUUAUUUCUGCAUUCCACAAAGUUGAGAAAUUUGCUAAGGAACUGCAAGGCAAAACAGACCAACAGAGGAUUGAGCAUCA` gave a bound/input enrichment of 0.12 ratio.
With `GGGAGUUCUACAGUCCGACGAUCAGUGACUUCAAAGGGAAAUCAAGGAAAGACCAGUUUGCAUUUAUGCGAAAUCUGUGGUUGUAAAUUUUUUUUUUUUUACUUGAAGUUAAAUUUGUCUCUGGAGUUGGUAUAGCAGCAGUUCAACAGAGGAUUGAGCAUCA` the bound/input enrichment was 0.469 ratio.
With `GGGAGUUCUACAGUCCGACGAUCCAGUGGUUGAAAACAAAGUUCUGUUUCAGAAAGAAUGAGGAGGGUUGUGAGCUGUGUGUGAAAGAUAAGGACUGAAGAUGUGGGGACAAGCUUGUUUGAAGUGAUGCUUGGCCAGUGAACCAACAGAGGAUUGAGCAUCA` the bound/input enrichment was 0.543 ratio.
`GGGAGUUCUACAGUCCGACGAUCUCCAAGAGAUAACUUCACCAAGAUGUCCAGUGAUAGGCAAAGGUCCGAUGAUGAGAGCCCCAGCACCAGCAGUGGCAGUUCAGAUGCGGACCAGCGAGACCCAGCCGCUCCAGAGCCUGACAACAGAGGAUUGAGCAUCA` gave a bound/input enrichment of 0.0997 ratio.
`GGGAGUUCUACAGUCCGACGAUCAUUAGGCCUCUCUGGAGGCAUUACUUCCAGAAUACCCAGGGUCUCAUUUUUGUGGUAGAUAGCAAUGAUCGUGAAAGAAUCCAGGAAGGAGCAGCUGUGCUGCAGAAAAUGCUUCUGGAACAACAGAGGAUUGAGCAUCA` has a bound/input enrichment of 0.396 ratio.

Block 4 — mode: inhibitor; concentration: 20 µM
Target: Replicase polyprotein 1ab, nsp13 helicase (rep, Severe acute respiratory syndrome coronavirus 2, UniProt P0DTD1)
The inhibition of `CN1CCN(C2CCN(C(=O)Nc3cc(Oc4ccc(NC(=O)C5(C(=O)Nc6ccc(F)cc6)CC5)c(F)c4)ccn3)CC2)CC1` is reported as 7.85%.
With `NP(N)(=O)NC(=O)c1ccc(F)cc1` the inhibition was 2.99%.
The inhibition of `C[C@H](O)C(=O)Nc1c(I)c(C(=O)NC(CO)CO)c(I)c(C(=O)NC(CO)CO)c1I` is reported as 9.12%.
With `CC(C)c1ccc(C(=O)N=C(N)N)cc1S(C)(=O)=O` the inhibition was 6.15%.
`NCC1(CC(=O)O)CCCCC1` has an inhibition of 2.62%.
The inhibition of `C[n+]1ccccc1/C=N/O` is reported as 0.32%.
`C[N+](C)(C)CCOC(=O)CCC(=O)OCC[N+](C)(C)C` gave an inhibition of 7.44%.
`CNCCC=C1c2ccccc2CCc2ccccc21` gave an inhibition of 1.69%.
The inhibition of `COc1ccc(C2CNC(=O)NC2)cc1O[C@H]1C[C@@H]2CC[C@H]1C2` is reported as -4.62%.
For `N[C@@H](Cc1ccc(O)c(O)c1)C(=O)O`, the inhibition was 6.91%.
For `CCOc1nc2cccc(C(=O)O)c2n1Cc1ccc(-c2ccccc2-c2noc(=O)[nH]2)cc1`, the inhibition was 2.21%.
`OC(c1ccc(-c2ccc(CN3CCN(Cc4ccncc4)CC3)cc2)c(F)c1)(C(F)(F)F)C(F)(F)F` gave an inhibition of 7.66%.
`Cc1onc(-c2ccccc2Cl)c1C(=O)N[C@@H]1C(=O)N2[C@@H]1SC(C)(C)[C@@H]2C(=O)O` gave an inhibition of 0.69%.
With `COCCCOc1cc(C[C@@H](C[C@H](N)[C@@H](O)C[C@H](C(=O)NCC(C)(C)C(N)=O)C(C)C)C(C)C)ccc1OC` the inhibition was 6.2%.
For `CCCC(CCC)C(=O)O[C@H]1C[C@H]2CC[C@@H](C1)[N+]2(C)C`, the inhibition was -0.56%.
The inhibition of `CCO[C@H]1O[C@@H]2O[C@@]3(C)CC[C@H]4[C@H](C)CC[C@@H]([C@H]1C)[C@@]24OO3` is reported as -2.61%.
For `COc1ccc(-c2noc(CC(=O)O)c2-c2ccc(OC)cc2)cc1`, the inhibition was 8.32%.
`CCCCn1ccc(N2CCC(c3ccccc3)CC2)c(Cl)c1=O` gave an inhibition of 6.99%.
The inhibition of `Fc1ccc([C@@H]2CCNC[C@H]2COc2ccc3c(c2)OCO3)cc1` is reported as 0.84%.
With `O=C(O)CCc1cc(C(=O)c2ccc(OC3CCCC3)cc2O)ccc1OCc1ccc2c(=O)[nH]oc2c1` the inhibition was -2.57%.
With `N[C@@H](CC(=O)O)C(=O)O` the inhibition was 3.16%.
With `CC(C)n1cnc2c(NCCc3ccc(O)cc3)nc(-c3csc4ccccc34)nc21` the inhibition was 4.98%.
With `COC(=O)[C@@]12OC[C@]34[C@H]([C@@H](O)[C@@H]1O)[C@@]1(C)CC(=O)C(O)=C(C)[C@@H]1C[C@H]3OC(=O)[C@H](OC(=O)/C=C(\C)C(C)C)[C@@H]24` the inhibition was 4.19%.
With `Nc1ncnc2c1ncn2C1CCCO1` (centres unmarked) the inhibition was 6.21%.
For `FC(F)(F)c1ccc(CNc2ccc(Cc3c[nH]c4ncccc34)cn2)cc1`, the inhibition was 3.49%.

Block 5 — technique: RNA Bind-n-Seq; form: RNA; matrix: in vitro; concentration: 365 nM; baseline: no-protein control; direction: higher = stronger binding
Target: RNA binding protein fox-1 homolog 2, RRM domain, GST-SBP tag (RBFOX2, Homo sapiens, UniProt O43251-10, residues 100-194)
Setting: natural RNA segment, single round, ends assumed
Under “RBNS enrichment (R)”, `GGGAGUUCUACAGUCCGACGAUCUGUUUAUAAACAAGACUAAGUCUGACUUCAUAAGGGCUUUCUAAAACCAUUUCUGUCCAAGAGAAAAUGACUUUUUGCUUUGAUAUUAAAAAUUCAAUGAGUAAAACAAAUGGAAUUCUCGGGUGCCAA` is recorded as 0.41.
`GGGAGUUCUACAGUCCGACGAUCUAAUGUUGGAAACACAAAUAGUGCAAUUUGUGCAAUUGGAGAAUCUUGCCUUUUUUCUUGUCUCCCUCCCACCCCCCAACACAAACAAACAGAAGCUUGUACGUAUUCAUUGGAAUUCUCGGGUGCCAA`: “RBNS enrichment (R)” 1.09.
Under “RBNS enrichment (R)”, `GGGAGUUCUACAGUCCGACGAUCAGGAGGGCCUGUGGUGACCUACUGCAUUGACCCACUCUGCCCCCGAGUGAACCGUGGAGCAGGCAGGAGCAUCCUUUGUCUCACCAAUUCCAGGAUUUAGGCCUUAUCAUUGGAAUUCUCGGGUGCCAA` is recorded as 0.58.
`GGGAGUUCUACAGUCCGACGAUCCAUCUACCAUAUAGCAAGUUUAGUAAGGGAAGGCAGCAUACGUCCCAGGGACAGUGGGUUUGGAUCUGUCUAGAACAGCGGUUUGUGGCUGUGGCCCAGCUCCGAGAGUGUGGAAUUCUCGGGUGCCAA`: “RBNS enrichment (R)” 2.62.
`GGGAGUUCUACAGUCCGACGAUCUAAAUUCUUAUUGGCCAAAUGCCUGUUUUGAUGAGUUGAUUUAUAAAGAUUUUUGUUAAGCUCAGGAUUUUAAAUUACACAGUUCACAAACAGUAAAGGCCAUGUGAAGAUGGAAUUCUCGGGUGCCAA`: “RBNS enrichment (R)” 0.475.
`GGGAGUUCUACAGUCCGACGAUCGAGAUGUGAGCCUUGUGCAUGUGGGGGAGGAGGGAGAGAGAUGUACUUUUUAAAUCAUGUUCCCCCUAAACAUGGCUGUUAACCCACUGCAUGCAGAAACUUGGAUGUCAUGGAAUUCUCGGGUGCCAA`: “RBNS enrichment (R)” 28.8.
`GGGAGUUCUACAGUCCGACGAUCGCUGGAGGGGGGUGGUGAGCCAGAGGGCAGGAGCAUUUUCUGAGCCCUUUCUUGGUGUGUGGGGGAUCUAUGGCCAUCUCCUACCAUGAGGGAGCUACCCAGCUUCCUGUUGGAAUUCUCGGGUGCCAA` — result for “RBNS enrichment (R)”: 0.654.
For `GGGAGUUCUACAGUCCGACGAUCACAGCUGAGGGGUAGAAGUGGGACUCCUUUCCCGAGCCCCAGCAUGAGGCUGUGGUGUCAGGUUUAGGCCUCUCUCAAGUCAGAAAACCCCGGGCUGAGACCUCCACAGAUGGAAUUCUCGGGUGCCAA`, “RBNS enrichment (R)” read 15.6.

Block 6 — cell line: HEK-293T/ACE2; concentration: concentration not given; time: 16 (unit not given); baseline: vehicle
For `O=C(OCc1ccccc1)c1ccccc1`, the viability was 102%.
For `CC(=O)N(O)CCCCCNC(=O)CCC(=O)N(O)CCCCCNC(=O)CCC(=O)N(O)CCCCCN`, the viability was 102%.
`CN(C)c1cc(NC(=O)CNC(C)(C)C)c(O)c2c1C[C@H]1C[C@H]3[C@H](N(C)C)C(O)=C(C(N)=O)C(=O)[C@@]3(O)C(O)=C1C2=O` has a viability of 104%.

Further values, each from its own experiment
`CGGA`: “4-mer enrichment Z-score” 0.401 (Eukaryotic initiation factor 4A-I (EIF4A1, Homo sapiens, UniProt P60842, residues 1-406, full length assumed); RNA Bind-n-Seq; RNA, in vitro; 15 pmol, 4-mer, random 30-nt RNA, single round, added: 3 µM RocA, 2 mM AMP-PNP; baseline: mean of 4-mers, higher = stronger binding).

A few entries again (further values, each from its own experiment):
`CGGA`: “4-mer enrichment Z-score” 0.401 (Eukaryotic initiation factor 4A-I (EIF4A1, Homo sapiens, UniProt P60842, residues 1-406, full length assumed); RNA Bind-n-Seq; RNA, in vitro; 15 pmol, 4-mer, random 30-nt RNA, single round, added: 3 µM RocA, 2 mM AMP-PNP; baseline: mean of 4-mers, higher = stronger binding).
